Results of several laboratories.
A part holds a random share of what one study measured. Changes are numbered by the printed parent chain.

Block 1
Target: Sal-like protein 4, full length isoform B (SALL4, Homo sapiens, UniProt Q9UJQ4-2, residues 1-616)
Method: universal PBM
Molecule type: double-stranded DNA, one strand shown
Medium: in vitro
Concentration: not given
Setting: 8-mer, flanks averaged, mean of replicates
Reading: higher = stronger binding
Endpoint: E-score
Residues (chain): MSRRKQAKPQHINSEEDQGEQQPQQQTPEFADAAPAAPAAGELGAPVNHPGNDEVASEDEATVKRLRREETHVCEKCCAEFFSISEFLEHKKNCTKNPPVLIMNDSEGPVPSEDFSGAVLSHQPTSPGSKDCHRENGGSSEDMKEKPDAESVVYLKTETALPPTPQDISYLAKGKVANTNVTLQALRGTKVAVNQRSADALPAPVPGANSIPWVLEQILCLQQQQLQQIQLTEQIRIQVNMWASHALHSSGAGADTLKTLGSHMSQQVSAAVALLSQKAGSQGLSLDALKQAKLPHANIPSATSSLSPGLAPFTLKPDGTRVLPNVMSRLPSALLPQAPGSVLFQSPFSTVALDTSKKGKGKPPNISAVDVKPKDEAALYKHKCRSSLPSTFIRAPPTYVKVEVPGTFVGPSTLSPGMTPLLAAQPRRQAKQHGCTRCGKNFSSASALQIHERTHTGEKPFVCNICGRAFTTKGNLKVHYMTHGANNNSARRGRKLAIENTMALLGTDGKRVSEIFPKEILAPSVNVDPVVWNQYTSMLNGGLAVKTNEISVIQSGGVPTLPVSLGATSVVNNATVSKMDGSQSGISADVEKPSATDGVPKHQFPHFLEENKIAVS
AGCGCCGG: -0.413
AGCCCCCT: -0.24
GGCGCCCA: -0.184
CATGAAAA: 0.228
CCGACAGC: -0.324
GTATGCAA: 0.133
AGTGGGGC: -0.404
CCGGCGAA: -0.225

Block 2
Target: Interferon regulatory factor 5, full length, phosphomimetic (IRF5, Homo sapiens, UniProt Q13568-2, residues 1-514, S451D/S453D/S456D/S462D)
Method: protein-binding microarray
Molecule type: double-stranded DNA, one strand shown
Medium: in vitro
Concentration: 940 nM top
Setting: 60-bp whole probe
Together with: salmon DNA 0.4 mg/ml
Relative to: random background probes
Reading: higher = stronger binding
Endpoint: fitted relative affinity
Constant ends, left off below: GCCTAGCAC … GTCTTGATTCGCTTGACGCTGCTG
GACGGTATCGGTCTCGGGTCGTGCTAG: 9.38 z-score
GACGGTTTCCTTTCCCTGATGTGCTAG: 1.72 z-score
TTAGGTCTCCTTATCCTTTTGTGCTAG: 0.386 z-score
TTAGAACTGATTTTCGATTAGTGCTAG: 0.786 z-score
TTAGGTTACGGACTGGGTTAGTGCTAG: -0.399 z-score
GTGTGTTTGTGTGTGTATGTGTGCTAG: 0.825 z-score
TTAGGACTGGACACTGGGTAAGTGCTA: -0.514 z-score
GACGGTAGCGGGTTTCGGGACGTGCTA: 2.13 z-score

Block 3
Target: RING finger protein unkempt homolog, zinc fingers 1-6, GST-SBP tag (UNK, Homo sapiens, UniProt Q9C0B0, residues 30-357)
Chain of UniProt Q9C0B0 (30-357, looked up): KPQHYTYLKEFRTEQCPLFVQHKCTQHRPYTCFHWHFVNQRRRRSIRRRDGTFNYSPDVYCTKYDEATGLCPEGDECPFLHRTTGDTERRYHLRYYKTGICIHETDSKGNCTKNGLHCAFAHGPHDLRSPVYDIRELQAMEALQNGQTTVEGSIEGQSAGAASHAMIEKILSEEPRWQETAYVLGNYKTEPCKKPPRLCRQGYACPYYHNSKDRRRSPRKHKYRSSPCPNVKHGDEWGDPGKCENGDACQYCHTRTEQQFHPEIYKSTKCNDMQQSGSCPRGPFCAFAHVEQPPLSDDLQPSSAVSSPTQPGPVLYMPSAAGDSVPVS
Method: RNA Bind-n-Seq
Molecule type: RNA
Medium: in vitro
Concentration: not given
Setting: RNA with constant flanks, human-mouse chimeric sites, ends assumed
Relative to: input RNA pool
Reading: higher = stronger binding
Endpoint: bound/input enrichment
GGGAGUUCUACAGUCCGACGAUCAGAGAUAAGACAUCCAGGAACAUGCGAGGGUCACGGAUGAAUGGGUUUCCAAGUCCCACUCACAGCGCCCACUGUAGCUUCUACCGAACCAGAACCUUGCAGGCACUGAGUAAUGAGAAGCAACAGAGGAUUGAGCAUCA: 0.129 ratio
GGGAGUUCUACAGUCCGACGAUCGGACAUCUGUCAAAUUGUUAUGUUCCUGUGAAACAAGUGAACACUCUGAUACACUUCAUUUAGUUGUACAUCUGUAUGAUAGAGAAAUGUAAAUAUGUUAAUCCAAGCAAUGUGUCACUUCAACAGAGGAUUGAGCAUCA: 0.265 ratio
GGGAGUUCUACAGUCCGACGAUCGUGACUGGUGUUAAGAUUUCCCCUCAGCAAAGAAGUGUAGCAGUGACAAUAAUCCCUUCUGUGGUGAGUGCCAGUCAGAUUGUGGAGCUGGUCCCAGACCUCAGUUUAGACAUGGGAACUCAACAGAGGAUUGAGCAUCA: 0.307 ratio
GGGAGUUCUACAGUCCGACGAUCCCCCACAACCAUUUGCAGGUCUGGAACUGCACUCUCUUUUUUAAAAAACAUGUAUACAUUUUAGGGCUGUAGAUUUACUUUCCUAUUUUUGUUUUUCAUUGCUGACUUUUGAGCACAGAACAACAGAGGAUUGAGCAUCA: 1.69 ratio
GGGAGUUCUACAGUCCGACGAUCAAAUUUCCCCUCCUGAGACCUCCUCCGAAGUUGGAGUCUCUUACAGAUGCCUCAUCCCCUGUUAGCGUUUUAGUUUGGACCACCCAGCCUUGGACGAUUCCCGCCAACCAGGCAAUUUGCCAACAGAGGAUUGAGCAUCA: 1.14 ratio
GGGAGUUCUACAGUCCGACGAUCGCAUAUGGUUAUCGAGGAAAGGACUGUAGAGCGAAUGUAUACCUGCUUCCCACAGGGGAGAUAGUUUAUUUUAUCGCCUCAGUGGUAGUCCUGUUUAAUUAUGAGGAGAGAACUCAGCGACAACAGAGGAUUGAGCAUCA: 0.373 ratio
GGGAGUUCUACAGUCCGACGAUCAGUACUGACUCAGGCGGAUUUUGCAACACCAAGCUCACAGCAGCAGCAUCUUAGUCACAGUUAGGUAGUUUUGGGGCUCUGUGGCCAGGGUUUUAUUCACAUGCAGGUUUGGAAAAUGUACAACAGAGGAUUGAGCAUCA: 3.26 ratio
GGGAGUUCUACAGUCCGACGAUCACUCUUGACUCUUUCCAUCCUCUUCCUUUCCCUCUUGAUAUUCAAGGCCAUGAAUCCCAAAAUAACAAUCUAUCUUACUAGCACCCAAACAGAGGUGGAAUAAAUCCAAACUGACAACUCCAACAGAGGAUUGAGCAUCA: 1.98 ratio

Other studies, line by line
Starting sequence: viral docking peptide; KKAKRRLFTISDS; partner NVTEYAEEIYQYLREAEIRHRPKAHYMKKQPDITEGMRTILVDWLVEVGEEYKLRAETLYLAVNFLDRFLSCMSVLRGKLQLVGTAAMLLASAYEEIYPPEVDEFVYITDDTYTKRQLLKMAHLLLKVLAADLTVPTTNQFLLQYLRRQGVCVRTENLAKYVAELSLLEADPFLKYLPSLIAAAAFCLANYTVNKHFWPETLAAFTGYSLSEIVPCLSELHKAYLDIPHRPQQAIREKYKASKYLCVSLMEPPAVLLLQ
KAAKRRLFTISDS [K2A] — normalised enrichment score (CCNA1, cyclin fold, Cln2 fusion (human); yeast growth competition, sequencing; yeast; weak parent motif; relative to: not given, higher = stronger binding): 0.525

Some of these lines once more (block 3):
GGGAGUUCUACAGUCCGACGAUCAGAGAUAAGACAUCCAGGAACAUGCGAGGGUCACGGAUGAAUGGGUUUCCAAGUCCCACUCACAGCGCCCACUGUAGCUUCUACCGAACCAGAACCUUGCAGGCACUGAGUAAUGAGAAGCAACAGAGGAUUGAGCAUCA: 0.129 ratio
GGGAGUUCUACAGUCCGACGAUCGGACAUCUGUCAAAUUGUUAUGUUCCUGUGAAACAAGUGAACACUCUGAUACACUUCAUUUAGUUGUACAUCUGUAUGAUAGAGAAAUGUAAAUAUGUUAAUCCAAGCAAUGUGUCACUUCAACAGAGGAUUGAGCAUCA: 0.265 ratio
